Results of several laboratories.
Numbered parts are unrelated; each lists some results of a single study. Substitutions count along the parent as printed.

Block 1 — method: aptamer microarray, sandwich; form: DNA with 2'F-ANA; matrix: in vitro; concentration: 200 nM; together with: Cy3 exosite-II aptamer, 400 nM; direction: higher = stronger binding; strand: GGTTGGTGTGGTTGG
Target: Prothrombin, mature alpha-thrombin (F2, Homo sapiens, UniProt P00734)
Setting: whole 15-mer aptamer, many near background
`2'F-ANA at 1 2 3 8 9 10 15` — result for “mean fluorescence intensity”: 85.7 a.u.
`2'F-ANA at 1 2 4 10 13` — result for “mean fluorescence intensity”: 45.4 a.u.
`2'F-ANA at 2 4 5 7 9`: “mean fluorescence intensity” 71.4 a.u.
`2'F-ANA at 2 4 5 7 9 10 13 15` — result for “mean fluorescence intensity”: 52.5 a.u.
`2'F-ANA at 1 3 6 8 9 14 15` — result for “mean fluorescence intensity”: 91.8 a.u.
`2'F-ANA at 2 4 5 6 7 8 9 11 12 13 15`: “mean fluorescence intensity” 74.3 a.u.

Block 2 — target: CCNB3, cyclin fold, Cln2 fusion (human); method: yeast growth competition, sequencing; matrix: yeast; setting: weak parent motif; relative to: not given; direction: higher = stronger binding
Starting sequence: PKN2 docking peptide (human); VSAVQKLDFSDTM; partner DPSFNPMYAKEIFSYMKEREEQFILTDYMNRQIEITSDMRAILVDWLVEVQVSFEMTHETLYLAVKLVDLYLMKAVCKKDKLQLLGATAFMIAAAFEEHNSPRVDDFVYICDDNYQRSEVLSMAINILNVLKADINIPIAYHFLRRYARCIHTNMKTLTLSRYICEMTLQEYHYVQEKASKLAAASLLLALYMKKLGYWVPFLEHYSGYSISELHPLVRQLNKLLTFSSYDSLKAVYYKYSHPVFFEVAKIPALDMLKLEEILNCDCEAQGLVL
`F9V`: “normalised enrichment score” 0.0236.
For `S2H`, “normalised enrichment score” read -0.214.
Under “normalised enrichment score”, `M13I` is recorded as 0.271.
`D11M` — result for “normalised enrichment score”: 0.139.

Block 3 — method: competition protein-binding microarray; form: double-stranded DNA, one strand shown; matrix: in vitro; concentration: 2 µM; together with: Pho4 competitor, 0.05 µM; direction: higher = stronger binding; constant ends, left off below: … GTCTTGATTCGCTTGACGCTGCTG
Target: Centromere-binding protein 1, full length, His-tagged (CBF1, Saccharomyces cerevisiae, UniProt P17106, residues 1-351)
Chain of UniProt P17106 (whole entry, looked up): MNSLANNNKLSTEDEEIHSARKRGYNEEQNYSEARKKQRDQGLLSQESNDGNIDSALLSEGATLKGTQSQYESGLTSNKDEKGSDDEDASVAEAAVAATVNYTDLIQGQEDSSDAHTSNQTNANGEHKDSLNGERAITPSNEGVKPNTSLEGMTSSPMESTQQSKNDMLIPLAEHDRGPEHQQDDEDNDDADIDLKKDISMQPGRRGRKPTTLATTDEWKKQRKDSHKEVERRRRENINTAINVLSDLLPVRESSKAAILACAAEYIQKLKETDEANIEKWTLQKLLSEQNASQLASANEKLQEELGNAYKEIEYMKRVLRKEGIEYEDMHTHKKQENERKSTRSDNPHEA
Setting: whole 60-bp probe, lowest competitor level
The fluorescence intensity of `ACCCCTTTTCAAAAGGTCGTGATTGTTTTCGTAAGA` is reported as 118 a.u.
`CGTCCTAGTGATTTTCACGTGAGCTCCATGAGGAAG` has a fluorescence intensity of 1240 a.u.
`CTATTCAGGTTTCTGGGCGTGGGACAGTTGGTAACA` gave a fluorescence intensity of 65.9 a.u.
The fluorescence intensity of `CCAGTGCTGCCCCGCCACATGCAATCGGGCCGTCGG` is reported as 66 a.u.
With `CCATTAGTAGGTTGTCATGAAGGTGCTGGTGTAGTT` the fluorescence intensity was 74.7 a.u.
`CGGGGTTAAGTTTGACACGTGTTTTGCTTGCAGCAG` gave a fluorescence intensity of 1300 a.u.
For `AAAATCTGCGATTGTCATGCCTCCAAGACTGATGTT`, the fluorescence intensity was 68.7 a.u.
`GGCAAGAGTTCTGCATTCGTGATGGATATCGGCGCG` has a fluorescence intensity of 67.1 a.u.
With `GGTTCCATTAGTGATGGCGTGCTTTGCTCAACACAA` the fluorescence intensity was 71.2 a.u.

Mixed results
`PhoQ, residues 284 288 289 292 302 303 TASMAF` gave a fold induction of 3.59 (PhoP, residues 12 14 15 18 19 SMASL (Escherichia coli, UniProt P23836); Sort-seq, refers to: YFP reporter; E. coli; PhoQ-PhoP variant library, together with: 10 µM Mg2+; relative to: high Mg2+ state, higher = stronger signaling).

Repeated from above (block 2):
For `S2H`, “normalised enrichment score” read -0.214.
Under “normalised enrichment score”, `M13I` is recorded as 0.271.
`D11M` — result for “normalised enrichment score”: 0.139.
